Published values gathered from unrelated publications.
Parts stem from different laboratories: compare values within a part only. Changes are numbered by the printed parent chain.

Block 1
Target: Histone acetyltransferase KAT6A, winged helix 1, GST fusion (KAT6A, Homo sapiens, UniProt Q92794, residues 1-85)
Technique: protein binding microarray
Molecule type: double-stranded DNA, one strand shown
Medium: in vitro
Tested at: not given
Setting: 8-mer, flanks averaged, mean of 2 arrays, mostly near background
Baseline: not given
Reading: higher = stronger binding
Endpoint: E-score
Residues (chain): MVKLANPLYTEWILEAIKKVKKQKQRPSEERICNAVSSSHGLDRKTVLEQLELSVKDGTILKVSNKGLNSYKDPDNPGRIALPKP
Oligonucleotide = TCCTGCGA; result = 0.00029
Oligonucleotide = ATAATTAA; result = -0.0895
Oligonucleotide = CGCCGCAA; result = 0.386
Oligonucleotide = CTCGCATA; result = 0.0381
Oligonucleotide = GAGAATGA; result = -0.176
Oligonucleotide = CCCCGCGG; result = 0.438
Oligonucleotide = ATAGTACG; result = 0.148
Oligonucleotide = ACCGACTG; result = 0.0546
Oligonucleotide = ACTGGCCC; result = -0.181
Oligonucleotide = CGTATAGC; result = 0.203
Oligonucleotide = CCATGATA; result = -0.111
Oligonucleotide = AAATCTGT; result = -0.202
Oligonucleotide = GCCATTAA; result = -0.139
Oligonucleotide = AGGCCAGA; result = -0.174
Oligonucleotide = CTCGTACC; result = -0.0211
Oligonucleotide = AGTTCATC; result = -0.2
Oligonucleotide = ACGCCCCG; result = 0.264

Block 2
Target: CCNA2, cyclin fold, Cln2 fusion (human)
Technique: yeast growth competition, sequencing
Medium: yeast
Setting: strong parent motif
Baseline: not given
Reading: higher = stronger binding
Endpoint: normalised enrichment score
Parent: MICAL3 docking peptide (human); LQLRRQLSFSEDS; partner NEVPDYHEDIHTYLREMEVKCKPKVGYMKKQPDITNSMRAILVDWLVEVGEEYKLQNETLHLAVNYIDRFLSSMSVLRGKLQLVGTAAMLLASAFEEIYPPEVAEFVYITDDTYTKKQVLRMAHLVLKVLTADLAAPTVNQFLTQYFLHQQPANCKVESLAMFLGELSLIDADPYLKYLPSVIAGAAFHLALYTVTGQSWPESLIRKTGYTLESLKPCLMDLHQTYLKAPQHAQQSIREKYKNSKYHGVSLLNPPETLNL
Substitution = LKLRRQLSFSEDS [Q2K]; result = 4.49
Substitution = LQDRRQLSFSEDS [L3D]; result = 0.0498
Substitution = LQLRRQLSCSEDS [F9C]; result = 0.0941
Substitution = LQLRRQLSFPEDS [S10P]; result = 2.93
Substitution = LQLRRQLSLSEDS [F9L]; result = -0.232
Substitution = LQLRRQLSFSFDS [E11F]; result = 2.63
Substitution = LQLRRQLSFIEDS [S10I]; result = 2.09
Substitution = LQLSRQLSFSEDS [R4S]; result = 1.17
Substitution = LQLRRQLSFSECS [D12C]; result = 4.33
Substitution = LQKRRQLSFSEDS [L3K]; result = 1.06
Substitution = LQLRRVLSFSEDS [Q6V]; result = 2.07
Substitution = LQLRRQLSFSADS [E11A]; result = 3.06
Substitution = LQLRRQLWFSEDS [S8W]; result = 2.22
Substitution = LQLRTQLSFSEDS [R5T]; result = 0.201
Substitution = LQNRRQLSFSEDS [L3N]; result = 0.618
Substitution = LQLRRQLSFSEYS [D12Y]; result = 3.35
Substitution = LQLRRQLSFSVDS [E11V]; result = 2.82
Substitution = LQLRRQLSFSKDS [E11K]; result = 2.95
Substitution = LQLRRQLSFAEDS [S10A]; result = 2.79
Substitution = LQLRKQLSFSEDS [R5K]; result = 1.31
Substitution = LQLRRHLSFSEDS [Q6H]; result = 3.13
Substitution = LQLRRQASFSEDS [L7A]; result = 0.13
Substitution = LQLRWQLSFSEDS [R5W]; result = 0.568
Substitution = LQLRRQLSFSHDS [E11H]; result = 2.63
Substitution = LQLRRQLCFSEDS [S8C]; result = 3.48

Block 3
Target: RNA binding protein fox-1 homolog 2, RRM domain, GST-SBP tag (RBFOX2, Homo sapiens, UniProt O43251-10, residues 100-194)
Technique: RNA Bind-n-Seq
Molecule type: RNA
Medium: in vitro
Tested at: 365 nM
Setting: natural RNA segment, single round, ends assumed
Baseline: no-protein control
Reading: higher = stronger binding
Endpoint: RBNS enrichment (R)
Residues (chain): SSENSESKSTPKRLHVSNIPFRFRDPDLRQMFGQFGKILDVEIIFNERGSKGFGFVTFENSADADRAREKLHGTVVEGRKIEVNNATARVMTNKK
Oligonucleotide = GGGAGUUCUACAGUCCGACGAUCAUAUUUGCUCUAUUAACACAGAGGCUUACUAUAGAAAUCUAAAGUCAAUGCUGUACAUCCAUCCAGUUAGUGUAACUGAAGGGAAAUGUAACUUUGUGCUGAGUUAGACAUGGAAUUCUCGGGUGCCAA; result = 0.283
Oligonucleotide = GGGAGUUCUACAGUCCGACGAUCCGCCCCCUCCCUGACAGGUGUCUUGUCAAGGUGUAUCCUCCGAGUAUCUUGACCACCUGGCACCAUGCAUGGCCAGAGCUCAUGUCAUCUCCUGCCUCUGUCACCUCAGUUGGAAUUCUCGGGUGCCAA; result = 1.93
Oligonucleotide = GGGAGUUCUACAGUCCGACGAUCAAUAAAUAUUUGAAAUGCUUCUGAUUUUUCAUUUUCAUUUAAAAACAUUAAAUUAAAUGUAAUGAGACCAAUUUGUGGUUUAUAUUAUGGAAAAAGAGGAGAAAAUUAUAUGGAAUUCUCGGGUGCCAA; result = 0.817
Oligonucleotide = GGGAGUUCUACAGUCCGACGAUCCUGGCUUUUGCAGGCACCCUCUGACCUCAGCAGAGCUCCUGGGCCUGCUGCCUGCACACCACAUCGCCUACCUACAAUGCCAAAGCCUCACUGUCACCCUUUCUGCCUUGUGGAAUUCUCGGGUGCCAA; result = 0.813
Oligonucleotide = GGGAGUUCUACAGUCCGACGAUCCUGCUCACAGACAUGAGGAAGCAGGCUGUAGAUUUAAGGGCACUCAAGGGGAAAACAAAUGUAGUUUCCACAGUGUGAGGAUAAAUGUAGAAUCGUGGUAAUAUUGGCUGUGGAAUUCUCGGGUGCCAA; result = 1.77
Oligonucleotide = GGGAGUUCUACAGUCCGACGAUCUUGUUCAUAUCGUGUCAGAGAUUUCCUCUUCUCUGGAGCUUAGGUGGCUCUUCACAAUCCAUAGGCUUGAAUCUGCAACCUAGUGUAAACUGCCUUGCUUUCCCCGGUUCUGGAAUUCUCGGGUGCCAA; result = 0.573
Oligonucleotide = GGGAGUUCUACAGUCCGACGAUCUGCCAUUGCAUCAAACUCUAUGGCGUGGCCUUAUCGAUUGCAGUGGGAAGUUGUUGAAGACUUGAAGACGUGAUUCCUGCUCCAAUCAUCCCUUCUUGCUCCUCUUUGUGUGGAAUUCUCGGGUGCCAA; result = 1.11
Oligonucleotide = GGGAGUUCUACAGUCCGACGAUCCCAUCGAUGUACACAUUUGAUAUUUGUGCAGUAAAUAGACUGUACCUAUAAAAAAUUUUAUUGAUGUUUAUGGUCAUGUUAGCUAUCAGAGAGCUAUUGGAGUGAGAGCUUGGAAUUCUCGGGUGCCAA; result = 0.586
Oligonucleotide = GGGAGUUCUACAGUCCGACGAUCAUCUUCCCAUCGGCUGUGGCAAGCUCUUCCCCUGUGUGGAAUUUUGUUAUCUUUAUUUAGCUGAGGUUAAAUUAAUCUCUGUUGUGCAAGAAAAACAUGAAGCUUGCCCCUGGAAUUCUCGGGUGCCAA; result = 0.344
Oligonucleotide = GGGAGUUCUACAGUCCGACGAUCGGUGGACAACUGGGGUCCCCCAAAACUCAGUCCUGGCACCUCAACUGUGACAAUCAGCAAAGCCCCACCCAGGCCCCCAUCUGGGAUGAUGGGAGAGCUCUGGCAGAUGUUGGAAUUCUCGGGUGCCAA; result = 0.306
Oligonucleotide = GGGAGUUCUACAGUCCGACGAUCUGAAGAGAUGGCUCAGUGGUUCAGAGCACUUACUCCUCAGGUGUAAGACCUGGGUUUGGUUCUCAGCACCCAUGUGGCAACUUACAACCAUCCAUAGCUCCAGAUCCAGGUGGAAUUCUCGGGUGCCAA; result = 0.315
Oligonucleotide = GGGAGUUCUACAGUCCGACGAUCACCAAGGGGGCUCUUGCAUUGAGCAAUAUUGCCUUAUUUACUUUAGGGCACAAGCCAAGUCUUCAUGCCUUUGGGAAACAUCUGUCGGCCUCCCCACUCUGGUGUCUAUGUGGAAUUCUCGGGUGCCAA; result = 0.373

Block 4
Target: ABI1, truncated, D143A, DHFR fusion (Arabidopsis thaliana)
Technique: DHFR PCA, deep sequencing
Medium: yeast
Setting: methotrexate growth selection, single substitutions
Added: (+)-ABA 710 µM
Baseline: wild-type fitted maximum
Reading: higher = stronger binding
Endpoint: relative binding score
Parent: PYL1, truncated, DHFR fusion (Arabidopsis thaliana); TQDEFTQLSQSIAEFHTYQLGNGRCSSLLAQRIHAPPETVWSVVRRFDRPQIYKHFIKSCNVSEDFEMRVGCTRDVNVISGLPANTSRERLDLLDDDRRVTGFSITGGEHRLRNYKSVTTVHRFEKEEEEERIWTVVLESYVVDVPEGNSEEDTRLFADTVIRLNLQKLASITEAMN; partner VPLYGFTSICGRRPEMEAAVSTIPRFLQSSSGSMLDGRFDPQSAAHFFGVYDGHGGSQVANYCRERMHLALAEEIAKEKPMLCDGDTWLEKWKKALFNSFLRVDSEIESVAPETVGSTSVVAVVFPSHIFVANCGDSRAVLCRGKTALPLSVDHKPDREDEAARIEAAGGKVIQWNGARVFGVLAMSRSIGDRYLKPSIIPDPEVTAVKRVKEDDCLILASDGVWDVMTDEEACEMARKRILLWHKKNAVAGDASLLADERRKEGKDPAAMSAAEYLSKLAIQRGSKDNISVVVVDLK
Substitution = G71T; result = 60.4%
Substitution = Q2R; result = 99.4%
Substitution = Q19P; result = 103%
Substitution = H16F; result = 16%
Substitution = F66Y; result = 102%
Substitution = I172H; result = 97.7%
Substitution = H34K; result = 107%
Substitution = R49K; result = 99.9%
Substitution = V76T; result = 85.1%
Substitution = D48Q; result = 75.7%
Substitution = K168D; result = 77.2%
Substitution = S63V; result = 98.2%
Substitution = H55P; result = 101%
Substitution = E131W; result = 87.4%
Substitution = R45W; result = 14.1%
Substitution = H55C; result = 102%
Substitution = D97G; result = 110%

Block 5
Target: Centromere-binding protein 1, full length, His-tagged (CBF1, Saccharomyces cerevisiae, UniProt P17106, residues 1-351)
Chain of UniProt P17106 (whole entry, looked up): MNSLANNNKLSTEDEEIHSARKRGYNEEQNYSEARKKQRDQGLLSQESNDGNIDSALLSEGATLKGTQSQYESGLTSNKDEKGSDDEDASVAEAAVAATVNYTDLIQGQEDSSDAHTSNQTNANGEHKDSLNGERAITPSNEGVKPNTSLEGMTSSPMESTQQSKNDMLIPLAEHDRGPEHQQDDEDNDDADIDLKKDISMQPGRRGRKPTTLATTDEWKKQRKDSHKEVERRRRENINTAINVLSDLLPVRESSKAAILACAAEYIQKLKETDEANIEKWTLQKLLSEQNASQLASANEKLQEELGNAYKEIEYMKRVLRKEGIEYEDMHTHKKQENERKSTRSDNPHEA
Technique: competition protein-binding microarray
Molecule type: double-stranded DNA, one strand shown
Medium: in vitro
Tested at: 2 µM
Setting: whole 60-bp probe, lowest competitor level
Added: Pho4 competitor, 0.05 µM
Reading: higher = stronger binding
Endpoint: fluorescence intensity
Oligonucleotide = CTTTGTCTTGAAATGCGCGTGTCGGTAAAATATTGTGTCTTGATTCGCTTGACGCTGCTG; result = 107 a.u.
Oligonucleotide = CTTCTGTAAATTTGTCACAGTACTTGACGCGCCCCGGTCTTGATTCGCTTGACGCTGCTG; result = 74.6 a.u.
Oligonucleotide = GTCTTGTCTCATTGACGTGTGGGTGTCCCCACTTCAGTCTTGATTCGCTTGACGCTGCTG; result = 77.3 a.u.
Oligonucleotide = TGGTGGTAATTTTGGAACGTGCAAAACCTCTGGTATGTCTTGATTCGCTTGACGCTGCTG; result = 126 a.u.
Oligonucleotide = GCAGCACCCAAGCTTCCCGTGTATCCATACCACCCTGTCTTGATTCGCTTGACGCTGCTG; result = 52.1 a.u.
Oligonucleotide = TAGCAGGGGGATGAACATGTGAACATGTTGCAACAAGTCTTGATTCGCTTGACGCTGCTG; result = 280 a.u.
Oligonucleotide = AAATTACTAAGTTGTAGCGTGGGTGACGCCGTATGAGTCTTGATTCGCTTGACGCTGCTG; result = 64.4 a.u.
Oligonucleotide = TACGAACAATATCCACACGTGGCCGTTGTAAAGCTTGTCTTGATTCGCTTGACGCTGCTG; result = 967 a.u.
Oligonucleotide = GATCAGTTTGAAAGAAACGTGAAAATTATTTTTTTCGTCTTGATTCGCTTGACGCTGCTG; result = 248 a.u.
Oligonucleotide = CTTCTTGTCACCGCTCCCGTGAACGGCCCATGCTACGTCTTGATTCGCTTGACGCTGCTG; result = 105 a.u.
Oligonucleotide = AATTATTTAAGCTCACACAGGCAGAAATCAAGGGATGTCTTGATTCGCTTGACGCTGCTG; result = 89.2 a.u.
Oligonucleotide = GTCTTGTCTCATTGTTTTGTGGGTGTCCCCACTTCAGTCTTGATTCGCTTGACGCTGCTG; result = 76.1 a.u.
Oligonucleotide = AAGGATAGCACTTTGATCATGCAATTATTAAGGGACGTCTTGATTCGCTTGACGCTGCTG; result = 102 a.u.
Oligonucleotide = GGTGTTGGAACTACCCACGTGGTGATTCTGGTATTTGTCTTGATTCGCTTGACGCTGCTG; result = 1110 a.u.
Oligonucleotide = ACACAATAAGTAAATATATTTTAAAAAAGTACTCCGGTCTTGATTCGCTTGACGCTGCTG; result = 112 a.u.
Oligonucleotide = CGTCCTAGTGATTTTCACGTGCTTTCCATGAGGAAGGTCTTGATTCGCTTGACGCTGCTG; result = 1630 a.u.
Oligonucleotide = GTTCAATATACATCCTACGTGCAAAACGAACAATAGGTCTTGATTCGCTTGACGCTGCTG; result = 103 a.u.

Excerpt of the above (block 2):
Substitution = LQLRRQLSFSFDS [E11F]; result = 2.63
Substitution = LQLRRQLSFSADS [E11A]; result = 3.06
Substitution = LQLRRQLSCSEDS [F9C]; result = 0.0941
Substitution = LQLRRQLSFIEDS [S10I]; result = 2.09
Substitution = LQLRRQLSFPEDS [S10P]; result = 2.93
Substitution = LQLRRQLWFSEDS [S8W]; result = 2.22
Substitution = LKLRRQLSFSEDS [Q2K]; result = 4.49
Substitution = LQDRRQLSFSEDS [L3D]; result = 0.0498
Substitution = LQLRRHLSFSEDS [Q6H]; result = 3.13
